Assay results of several laboratories.
Each numbered part is a random draw from the data of one study; scales do not carry over between parts. Substitutions count along the parent as printed.

Study 1
Target: Histone acetyltransferase KAT6A, winged helix 2, GST fusion (KAT6A, Homo sapiens, UniProt Q92794, residues 85-181)
Method: protein binding microarray
Molecule type: double-stranded DNA, one strand shown
Sample: in vitro
Concentration: not given
Notes: 8-mer, flanks averaged, mean of 2 arrays, mostly near background
Relative to: not given
Reading: higher = stronger binding
Target sequence (chain): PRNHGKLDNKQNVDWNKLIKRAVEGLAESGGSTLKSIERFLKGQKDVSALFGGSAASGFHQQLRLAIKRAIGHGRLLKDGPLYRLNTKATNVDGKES
| Strand | E-score |
| --- | --- |
| ATATGTCG | 0.0521 |
| AATGTGCC | -0.0322 |
| AAGGTCGA | -0.0421 |
| GACCGACA | -0.0657 |
| CCCCAGAA | -0.00636 |
| CTCATTAC | -0.00857 |
| CGAGGCCG | 0.0957 |
| GAAGAACA | 0.0696 |
| AATCCAAA | -0.00369 |
| CAGGGGCG | 0.0945 |
| ATAGAATG | -0.0373 |
| GTAGACAA | -0.127 |
| AGGCAACA | -0.0754 |
| ACCTACCC | 0.0289 |
| CTGCTGTA | 0.12 |
| ACGTCGGA | -0.0665 |
| CGGGGATC | 0.0439 |
| ACAGAGCC | -0.0035 |
| AATATCGT | 0.0799 |
| GACCACCC | -0.0769 |
| CATATGAC | -0.147 |
| ATATCCAG | 0.0337 |
| CACTCAAC | 0.055 |
| GACATACA | -0.116 |
| AAGGCCCC | 0.00633 |

Study 2
Target: Sal-like protein 4, full length isoform B (SALL4, Homo sapiens, UniProt Q9UJQ4-2, residues 1-616)
Method: universal PBM
Molecule type: double-stranded DNA, one strand shown
Sample: in vitro
Concentration: not given
Notes: 8-mer, flanks averaged, mean of replicates
Reading: higher = stronger binding
| Strand | E-score |
| --- | --- |
| GTATGGCA | 0.0396 |
| GGAAGAAA | 0.0381 |
| ATATGAAA | 0.431 |
| AACGCAAC | 0.0353 |
| AAATGTTC | 0.218 |
| GCCTATTA | 0.172 |
| ACAGGCCC | -0.337 |
| CCCGAACA | -0.101 |
| AACACTGG | 0.048 |
| ACGACACT | 0.018 |
| GACGGCCC | -0.408 |
| AACCACGT | 0.0406 |
| TAAAATAA | 0.319 |
| CGCAAACG | -0.0737 |
| CACTTTAG | -0.0515 |
| CGGTCTAG | -0.216 |
| CGCGCACA | -0.195 |
| GATCTGGA | -0.0224 |
| CCGTCCTC | -0.143 |
| CGCTGCGA | -0.168 |
| ACAGTGAA | 0.0695 |

Study 3
Target: RNA binding protein fox-1 homolog 2, RRM domain, GST-SBP tag (RBFOX2, Homo sapiens, UniProt O43251-10, residues 100-194)
Method: RNA Bind-n-Seq
Molecule type: RNA
Sample: in vitro
Concentration: 365 nM
Notes: natural RNA segment, single round, ends assumed
Relative to: no-protein control
Reading: higher = stronger binding
Target sequence (chain): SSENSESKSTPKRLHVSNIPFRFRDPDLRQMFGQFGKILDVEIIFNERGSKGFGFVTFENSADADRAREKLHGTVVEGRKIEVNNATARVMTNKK
| Strand | RBNS enrichment (R) |
| --- | --- |
| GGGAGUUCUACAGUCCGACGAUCGUCCAGACCUGGUCGGGGCCCACUGGAAGCAUCCAGAACAGCACCACCAUCUAGCGGCCGCUCGAGGGAAGCACCCGCCGGUUGGCCGAAGUCCACGAAGCCGCCCUCUGUGGAAUUCUCGGGUGCCAA | 0.387 |
| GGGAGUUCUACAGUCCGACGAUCUACCACGGCUACCAUGUGGAACCUUAACUUGCAGAAGGCUUGUUAACAAUUGUUUUGAGAGAGAUGGCUGGUCAUGCCACAGCUGCUGGGGACUCCGCCUACUCCAGCCCUGGAAUUCUCGGGUGCCAA | 0.535 |
| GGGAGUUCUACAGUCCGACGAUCUUGAAAGGAAAGAUUGGGUUGCAUAGUCAUAGUACAUGAAUCCAAUCAAAGAUGAUACAAUAUUUCCCUCACUUCUGUUUUGCUGGCCUUAACUGGUAUCAAACAGUGUCUGGAAUUCUCGGGUGCCAA | 0.393 |
| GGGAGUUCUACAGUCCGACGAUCUUAAAUAGUUGAAUCAUUAACAACCUGGUGGGAGGCAAGUCAUUUAAUUGAACCACUAGGAAGUGUAUUUUCUUUUCUUUUUCUGCCAACUUUUUGGUGGCAUUUGUAAAUGGAAUUCUCGGGUGCCAA | 0.699 |
| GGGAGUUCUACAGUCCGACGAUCCUAGAGUUGAUACUGAUAAUAUAUUUUAAUUUUUAUUGAUGUUUAAUACCUUCUGAAACAGGAGGGUAAGAUCAGAUGGGAAGCCCCUCUGUUGAAGGAUCUUGGGAACCUGGAAUUCUCGGGUGCCAA | 0.294 |
| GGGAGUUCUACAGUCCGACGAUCAGUGUGAUCUGGAUGUGUGAUAAUCCAUUUUUAGAAUAUUAAUUUCAUUACCCAUUAAUUAUGGCCAACUGUAAGGAGAUAGUCCUGUUACUAUUCUUAAAUGAAGUCCUUGGAAUUCUCGGGUGCCAA | 0.351 |
| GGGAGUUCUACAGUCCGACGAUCCUCACAUUGCAGACACCAUUUUGGGCUCCCUGAUUAAAUGCAGAUCAGUUCUGCACACCUCCAGGGGUGGAUCCAGCUGUAAGGCCAUACCUAUAUCUUCCAGAUGUCCUUGGAAUUCUCGGGUGCCAA | 0.302 |
| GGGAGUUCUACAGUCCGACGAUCUUAGCAAGCUCUUUGUGCAGAUGGGGAUGUAGGUAAAUCUUUUUAAAAGUGAAAUUAACCUCCUGCCAAUUUUACAACCCAAGAAUUUUUUUUUAAGGGCCUUGGAGCCAUGGAAUUCUCGGGUGCCAA | 0.392 |
| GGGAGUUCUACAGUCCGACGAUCAGAUGCUUGCAAGCAGAGUCAGGGUCACCAGUGAAUGCCACAAAAGUUCUCUUUCCCACUGUUUAAUUUGACAAGAGAAGAAUUUGAAGGAUAUGAACAUUUUCAAGAACUGGAAUUCUCGGGUGCCAA | 0.954 |
| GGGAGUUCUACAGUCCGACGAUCCUUUGCACCAAGAGAAAGCUUUCCAAAAUUAACCUUCACAGCAGCGUUGUAAGUAACUGAGGUCCAUGUGGAAAAGAUGGCUUGUAUUUUUGAAAUGAUCACAACACACUUGGAAUUCUCGGGUGCCAA | 0.72 |
| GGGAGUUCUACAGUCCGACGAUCGGGAGAUACAAUUCAAGUUGAGAUUUGUGGGGGGACACAACCAAACCAUAUCAGCAUCCUUUCAAGAAUAUUAGAUAAUUGGAGCUGAGUACUCAGGAACUUGACUGUAGUGGAAUUCUCGGGUGCCAA | 0.554 |
| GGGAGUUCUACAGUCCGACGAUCAGAACCAAUCUAAAAUACUAAAAAGGCAGAAACUUUUAAAAUUAGAAAUUGGAUAAUUUUUAAGAAUCUUUAGAGAAAACAUUGGUUUAUCAUAGUCUUUUUCUUUCAUUUGGAAUUCUCGGGUGCCAA | 1.09 |

Study 4
Target: MAFF, bZIP domain (human)
Method: DHFR protein complementation
Sample: yeast
Notes: single substitutions, most at no-binding floor
Relative to: wild-type JUN-FOS pair
Reading: higher = stronger binding
Parent: JUN, bZIP domain (human); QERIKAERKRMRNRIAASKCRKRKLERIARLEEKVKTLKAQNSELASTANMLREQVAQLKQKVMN; partner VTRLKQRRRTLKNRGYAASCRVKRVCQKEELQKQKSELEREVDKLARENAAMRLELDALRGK
| Change | binding fitness [natural log] |
| --- | --- |
| S47Y | -1.26 |
| M51G | -1.51 |
| N42G | -1.49 |
| A57K | -1.55 |
| K36E | -1.21 |
| A40S | -1.46 |
| R30V | -1.36 |
| A46Q | -1.26 |
| R53F | -1.37 |
| T48P | -1.43 |
| S47G | -1.46 |
| V35A | -1.55 |
| L31W | -1.45 |
| T48H | -1.48 |
| K39L | -1.44 |
| A40T | -1.36 |
| K39D | -1.45 |
| E44L | -1.4 |
| A57W | -1.47 |
| T37V | -1.32 |
| V35C | -1.07 |
| A49G | -1.51 |
| L52Y | -1.48 |

Study 5
Target: Max dimerization protein 1, bHLH-zipper, MAX partner unstated (MXD1, Homo sapiens, UniProt Q05195, residues 56-136)
Method: protein-binding microarray
Molecule type: double-stranded DNA, one strand shown
Sample: in vitro
Concentration: not given
Notes: k-mer, scored over probes, only values ≥0.25
Reading: higher = stronger binding
Target sequence (chain): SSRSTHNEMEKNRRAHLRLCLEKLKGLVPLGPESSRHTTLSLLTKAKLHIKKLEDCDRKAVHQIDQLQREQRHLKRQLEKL
| Strand | E-score |
| --- | --- |
| CATGATCG | 0.274 |
| GCGTACAC | 0.286 |
| ATGTGGGG | 0.3 |
| CGCGTGAG | 0.291 |
| CTCATGTC | 0.282 |
| ACGAGGAG | 0.288 |
| CCTTCCAC | 0.254 |
| AGGGCATG | 0.338 |
| CGTGGTCA | 0.336 |
| CGCGGGGC | 0.284 |
| CGGGGAAC | 0.314 |
| CCCCGCCA | 0.345 |
| ACGAGGAA | 0.357 |
| ACCCCGTG | 0.419 |
| CACATGAC | 0.431 |
| ATAACACG | 0.329 |
| CGCGTGCC | 0.368 |
| AACCATGC | 0.416 |

Study 6
Target: PABPC1L2, full length, GST fusion (mouse, UniProt A0ABA7IW68)
Method: RNAcompete
Molecule type: RNA
Sample: in vitro
Concentration: 20 nM
Notes: 7-mer, probes averaged, single round
Relative to: mean of 7-mers
Reading: higher = stronger binding
Construct (chain): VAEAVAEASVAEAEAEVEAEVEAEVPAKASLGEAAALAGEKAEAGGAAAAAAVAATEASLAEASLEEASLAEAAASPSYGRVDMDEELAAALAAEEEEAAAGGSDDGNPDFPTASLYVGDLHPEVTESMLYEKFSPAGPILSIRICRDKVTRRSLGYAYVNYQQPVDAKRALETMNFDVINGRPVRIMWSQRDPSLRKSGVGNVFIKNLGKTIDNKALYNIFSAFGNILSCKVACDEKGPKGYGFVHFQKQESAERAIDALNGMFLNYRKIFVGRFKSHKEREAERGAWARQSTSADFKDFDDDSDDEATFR
| Strand | 7-mer Z-score |
| --- | --- |
| CUGGGGC | 0.0787 |
| GGCAACU | 0.111 |
| AUUCGUG | -0.164 |
| AACAUAU | 0.568 |
| GCCCUUG | -0.325 |
| CGUGUCU | -0.347 |
| UAUCACU | -0.144 |
| GGGGUUG | 0.164 |
| GUCUGCU | -0.389 |
| UUGCGCC | -0.44 |
| AACGCUG | -0.0174 |
| ACGAAGC | -0.0283 |
| GGAUCCG | -0.112 |
| GAAAGCG | 0.494 |
| CGCCUGC | -0.391 |
| AUACACG | 0.066 |
| UAGACUU | -0.137 |

Excerpt of the above (study 6):
| Strand | 7-mer Z-score |
| --- | --- |
| AUUCGUG | -0.164 |
| AACGCUG | -0.0174 |
| UAGACUU | -0.137 |
| CUGGGGC | 0.0787 |
| GGGGUUG | 0.164 |
| ACGAAGC | -0.0283 |
| UAUCACU | -0.144 |
| GGCAACU | 0.111 |
| GCCCUUG | -0.325 |
| CGUGUCU | -0.347 |
| AACAUAU | 0.568 |
| GGAUCCG | -0.112 |
| AUACACG | 0.066 |
| UUGCGCC | -0.44 |
| CGCCUGC | -0.391 |
| GAAAGCG | 0.494 |
| GUCUGCU | -0.389 |
